Published values collected from several papers.
Every numbered part comes from another study and shows a few of its results, in no order. Substitutions count along the parent as printed.
Chain of UniProt P15735 (whole entry, looked up): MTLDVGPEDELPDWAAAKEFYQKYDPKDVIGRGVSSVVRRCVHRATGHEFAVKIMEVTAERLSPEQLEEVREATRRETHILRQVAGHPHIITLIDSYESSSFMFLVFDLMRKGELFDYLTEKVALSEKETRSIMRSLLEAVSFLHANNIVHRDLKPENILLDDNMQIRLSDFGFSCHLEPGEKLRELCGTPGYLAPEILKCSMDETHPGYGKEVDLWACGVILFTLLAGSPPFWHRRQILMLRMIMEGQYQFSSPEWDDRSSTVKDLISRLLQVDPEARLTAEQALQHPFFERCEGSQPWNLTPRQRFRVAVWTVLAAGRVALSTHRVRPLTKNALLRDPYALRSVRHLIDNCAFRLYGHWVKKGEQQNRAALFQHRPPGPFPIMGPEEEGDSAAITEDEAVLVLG
Chain of UniProt Q06187 (whole entry, looked up): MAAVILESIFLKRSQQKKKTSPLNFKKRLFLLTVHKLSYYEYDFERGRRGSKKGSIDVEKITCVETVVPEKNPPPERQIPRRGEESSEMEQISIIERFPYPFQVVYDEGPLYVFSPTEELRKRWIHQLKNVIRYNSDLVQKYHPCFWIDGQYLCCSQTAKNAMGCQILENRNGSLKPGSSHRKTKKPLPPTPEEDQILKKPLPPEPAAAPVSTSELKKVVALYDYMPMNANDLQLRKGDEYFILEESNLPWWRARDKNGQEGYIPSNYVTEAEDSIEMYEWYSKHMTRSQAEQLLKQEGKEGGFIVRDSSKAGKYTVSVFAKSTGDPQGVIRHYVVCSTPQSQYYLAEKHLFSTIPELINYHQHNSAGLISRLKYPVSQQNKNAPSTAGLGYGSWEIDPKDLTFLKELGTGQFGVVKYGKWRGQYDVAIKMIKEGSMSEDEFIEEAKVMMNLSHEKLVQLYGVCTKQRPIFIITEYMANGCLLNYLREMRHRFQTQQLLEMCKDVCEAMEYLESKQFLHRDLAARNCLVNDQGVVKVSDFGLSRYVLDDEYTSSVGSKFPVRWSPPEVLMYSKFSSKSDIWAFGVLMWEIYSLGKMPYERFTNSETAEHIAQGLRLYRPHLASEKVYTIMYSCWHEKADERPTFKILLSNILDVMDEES
Chain of UniProt Q9UKI8 (whole entry, looked up): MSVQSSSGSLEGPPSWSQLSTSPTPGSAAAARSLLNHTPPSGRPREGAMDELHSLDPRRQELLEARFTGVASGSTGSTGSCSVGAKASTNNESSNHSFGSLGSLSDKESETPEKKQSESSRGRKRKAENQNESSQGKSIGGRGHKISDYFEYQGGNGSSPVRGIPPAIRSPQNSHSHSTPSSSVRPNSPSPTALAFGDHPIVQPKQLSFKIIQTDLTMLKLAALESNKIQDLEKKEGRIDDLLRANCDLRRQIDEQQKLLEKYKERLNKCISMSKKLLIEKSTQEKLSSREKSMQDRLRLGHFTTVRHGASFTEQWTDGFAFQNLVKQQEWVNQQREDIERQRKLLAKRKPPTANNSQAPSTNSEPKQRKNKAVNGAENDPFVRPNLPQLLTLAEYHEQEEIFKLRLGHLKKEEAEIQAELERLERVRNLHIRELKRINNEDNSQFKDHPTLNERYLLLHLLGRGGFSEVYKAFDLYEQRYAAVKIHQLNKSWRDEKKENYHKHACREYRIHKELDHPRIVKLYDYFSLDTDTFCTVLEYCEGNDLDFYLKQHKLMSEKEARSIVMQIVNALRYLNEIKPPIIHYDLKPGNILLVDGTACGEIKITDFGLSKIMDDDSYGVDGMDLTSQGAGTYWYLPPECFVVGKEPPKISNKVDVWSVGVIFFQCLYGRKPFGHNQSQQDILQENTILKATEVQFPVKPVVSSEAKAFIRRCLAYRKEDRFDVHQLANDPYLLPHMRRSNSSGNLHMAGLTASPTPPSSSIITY
Chain of UniProt Q9NWZ3 (whole entry, looked up): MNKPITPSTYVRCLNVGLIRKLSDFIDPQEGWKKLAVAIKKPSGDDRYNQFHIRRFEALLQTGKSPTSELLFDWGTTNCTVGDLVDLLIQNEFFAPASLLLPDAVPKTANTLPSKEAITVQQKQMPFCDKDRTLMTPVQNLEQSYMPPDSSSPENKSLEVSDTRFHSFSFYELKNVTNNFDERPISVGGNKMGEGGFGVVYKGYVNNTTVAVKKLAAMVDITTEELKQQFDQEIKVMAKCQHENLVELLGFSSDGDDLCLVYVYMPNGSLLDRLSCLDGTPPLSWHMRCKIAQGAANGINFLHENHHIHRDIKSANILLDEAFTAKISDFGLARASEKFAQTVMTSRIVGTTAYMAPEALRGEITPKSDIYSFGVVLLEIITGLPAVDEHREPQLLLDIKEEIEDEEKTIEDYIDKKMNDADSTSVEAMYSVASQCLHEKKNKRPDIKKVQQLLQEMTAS
Chain of UniProt Q9P1W9 (whole entry, looked up): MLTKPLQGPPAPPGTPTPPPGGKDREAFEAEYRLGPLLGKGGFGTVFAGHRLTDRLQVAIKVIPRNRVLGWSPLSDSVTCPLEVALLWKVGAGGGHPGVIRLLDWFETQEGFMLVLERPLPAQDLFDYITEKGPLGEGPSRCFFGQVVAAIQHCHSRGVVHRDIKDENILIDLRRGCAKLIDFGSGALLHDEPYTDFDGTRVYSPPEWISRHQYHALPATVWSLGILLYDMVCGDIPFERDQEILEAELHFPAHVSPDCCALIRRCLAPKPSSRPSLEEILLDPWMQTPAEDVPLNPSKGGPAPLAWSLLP
Chain of UniProt P04629 (whole entry, looked up): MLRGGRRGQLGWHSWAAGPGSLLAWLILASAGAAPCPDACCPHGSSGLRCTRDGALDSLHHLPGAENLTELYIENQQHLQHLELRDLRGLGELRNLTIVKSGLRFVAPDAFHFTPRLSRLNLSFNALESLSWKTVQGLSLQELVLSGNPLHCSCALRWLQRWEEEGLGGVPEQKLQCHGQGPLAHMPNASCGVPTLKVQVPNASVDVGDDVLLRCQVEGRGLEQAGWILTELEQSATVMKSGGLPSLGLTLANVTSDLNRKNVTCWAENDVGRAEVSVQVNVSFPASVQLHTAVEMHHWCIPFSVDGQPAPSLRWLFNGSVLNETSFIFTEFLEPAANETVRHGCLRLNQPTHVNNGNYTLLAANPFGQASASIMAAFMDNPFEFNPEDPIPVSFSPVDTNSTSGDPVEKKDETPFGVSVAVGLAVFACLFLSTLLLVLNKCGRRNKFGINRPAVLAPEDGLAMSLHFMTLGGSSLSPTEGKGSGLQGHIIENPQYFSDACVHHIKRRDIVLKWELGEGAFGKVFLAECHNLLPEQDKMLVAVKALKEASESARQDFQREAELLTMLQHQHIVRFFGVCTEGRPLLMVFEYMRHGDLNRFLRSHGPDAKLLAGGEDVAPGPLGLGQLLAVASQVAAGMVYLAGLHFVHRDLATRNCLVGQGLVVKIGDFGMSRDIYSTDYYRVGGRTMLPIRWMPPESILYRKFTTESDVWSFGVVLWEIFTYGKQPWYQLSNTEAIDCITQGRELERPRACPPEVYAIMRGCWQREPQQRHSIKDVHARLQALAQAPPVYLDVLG
Chain of UniProt Q8TD08 (whole entry, looked up): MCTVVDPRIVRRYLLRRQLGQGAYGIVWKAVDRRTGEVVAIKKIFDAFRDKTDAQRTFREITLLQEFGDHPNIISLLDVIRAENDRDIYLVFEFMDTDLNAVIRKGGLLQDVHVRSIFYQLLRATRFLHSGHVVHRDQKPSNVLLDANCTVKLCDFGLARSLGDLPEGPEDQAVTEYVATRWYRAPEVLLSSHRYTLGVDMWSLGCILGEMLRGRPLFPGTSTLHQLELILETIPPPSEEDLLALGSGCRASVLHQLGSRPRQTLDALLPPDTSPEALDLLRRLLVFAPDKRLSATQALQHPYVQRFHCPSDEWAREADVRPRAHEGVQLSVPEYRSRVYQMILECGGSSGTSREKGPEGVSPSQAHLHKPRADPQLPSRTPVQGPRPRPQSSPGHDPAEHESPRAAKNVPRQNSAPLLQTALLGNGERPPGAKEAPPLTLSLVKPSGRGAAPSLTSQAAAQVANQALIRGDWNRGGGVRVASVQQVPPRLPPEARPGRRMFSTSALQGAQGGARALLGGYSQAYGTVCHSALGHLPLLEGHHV
Chain of UniProt O95747 (whole entry, looked up): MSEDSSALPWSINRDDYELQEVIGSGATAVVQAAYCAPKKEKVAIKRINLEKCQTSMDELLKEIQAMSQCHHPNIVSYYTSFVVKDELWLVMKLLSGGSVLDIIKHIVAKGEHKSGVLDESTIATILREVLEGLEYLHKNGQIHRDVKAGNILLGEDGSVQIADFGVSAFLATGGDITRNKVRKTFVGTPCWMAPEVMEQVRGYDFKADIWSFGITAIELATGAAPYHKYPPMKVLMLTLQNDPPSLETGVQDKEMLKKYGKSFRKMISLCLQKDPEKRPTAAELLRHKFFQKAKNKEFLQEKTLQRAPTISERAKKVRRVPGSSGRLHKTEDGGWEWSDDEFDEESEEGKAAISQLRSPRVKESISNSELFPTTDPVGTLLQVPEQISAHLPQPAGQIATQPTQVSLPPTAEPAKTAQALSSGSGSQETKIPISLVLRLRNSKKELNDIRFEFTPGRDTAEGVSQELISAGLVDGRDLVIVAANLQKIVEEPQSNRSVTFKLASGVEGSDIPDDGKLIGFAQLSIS
Chain of UniProt Q96D53 (whole entry, looked up): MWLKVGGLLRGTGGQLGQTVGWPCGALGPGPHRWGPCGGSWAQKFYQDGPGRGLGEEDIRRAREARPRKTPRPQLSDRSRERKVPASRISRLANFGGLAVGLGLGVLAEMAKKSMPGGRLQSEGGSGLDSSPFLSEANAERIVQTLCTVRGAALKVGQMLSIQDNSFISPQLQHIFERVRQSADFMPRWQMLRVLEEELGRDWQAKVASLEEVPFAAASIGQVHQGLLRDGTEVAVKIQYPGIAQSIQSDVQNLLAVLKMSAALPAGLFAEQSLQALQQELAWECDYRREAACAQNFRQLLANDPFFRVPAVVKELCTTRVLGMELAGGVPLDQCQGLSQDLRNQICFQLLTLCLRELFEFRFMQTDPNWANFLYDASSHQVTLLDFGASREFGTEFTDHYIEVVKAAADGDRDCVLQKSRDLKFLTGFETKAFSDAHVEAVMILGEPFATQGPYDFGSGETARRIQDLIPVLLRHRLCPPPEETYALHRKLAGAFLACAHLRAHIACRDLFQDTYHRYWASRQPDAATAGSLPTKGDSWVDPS

Sample 1 — effect on: cell-free assay; technique: competition with immobilised ligand; concentration: 1 µM; quantity: remaining binding
SMILES: CS(=O)(=O)NCC[C@H](NC(=O)c1cncc2c1cnn2-c1ccc(F)cc1)c1ccnc(S(C)(=O)=O)c1
Serine/threonine-protein kinase Nek9 (NEK9, Homo sapiens, UniProt Q8TD19): 100%
Interleukin-1 receptor-associated kinase 4 (IRAK4, Homo sapiens, UniProt Q9NWZ3): 100%
Mitogen-activated protein kinase 15 (MAPK15, Homo sapiens, UniProt Q8TD08): 100%
Atypical kinase COQ8B, mitochondrial (COQ8B, Homo sapiens, UniProt Q96D53): 100%
Microtubule-associated serine/threonine-protein kinase 1 (MAST1, Homo sapiens, UniProt Q9Y2H9): 100%
Serine/threonine-protein kinase tousled-like 1 (TLK1, Homo sapiens, UniProt Q9UKI8): 100%
High affinity nerve growth factor receptor (NTRK1, Homo sapiens, UniProt P04629): 97%
Serine/threonine-protein kinase OSR1 (OXSR1, Homo sapiens, UniProt O95747): 88%
Phosphorylase b kinase gamma catalytic chain, liver/testis isoform (PHKG2, Homo sapiens, UniProt P15735): 100%
Tyrosine-protein kinase ABL1, non-phosphorylated (ABL1, Homo sapiens, UniProt P00519, Q252H): 81%
Serine/threonine-protein kinase pim-2 (PIM2, Homo sapiens, UniProt Q9P1W9): 86%
Tyrosine-protein kinase BTK (BTK, Homo sapiens, UniProt Q06187): 100%

Sample 2 — technique: RNA Bind-n-Seq; molecule type: RNA; sample: in vitro; concentration: 20 nM; notes: 6-mer, flanks averaged, single round; together with: 150 mM KCl; baseline: input library; reading: higher = stronger binding; quantity: 6-mer enrichment (R)
Target: TAR DNA-binding protein 43, full length, His tag (TARDBP, Homo sapiens, UniProt Q13148, residues 1-414)
AGGAGU: 1.41
UAAGUC: 0.592
GUUGAA: 0.862
GUGCAU: 0.947
GCAGCU: 0.869
UACCAG: 0.7
CAUCAG: 0.653
CGAAUU: 0.594

Sample 3 — target: CCNE2, cyclin fold, Cln2 fusion (human); technique: yeast growth competition, sequencing; sample: yeast; notes: strong parent motif; baseline: not given; reading: higher = stronger binding; quantity: normalised enrichment score
Starting sequence: PKN2 docking peptide (human); VSAVRKLDFSDTM
D8G: 0.586
K6F: 2.17
R5K: 1.6
R5H: -0.033
D8H: 3.78
S2M: 3.53
T12K: 5.12
T12P: 4.83

Mixed results
COc1ccccc1N1CCN(CCC(=O)Nc2ccc3c(c2)OCCO3)CC1
IC50 (Beta-1 adrenergic receptor (ADRB1, Homo sapiens, UniProt P08588); antagonist): ≥ 100 µM

CCn1c(=O)c(C(=O)N2CCOCC2)nn(-c2ccc(S(C)(=O)=O)cc2)c1=O
remaining compound (mouse, microsomes or S9; 2 µM, 0.5 h): 71.5%

Excerpt of the above (sample 1):
Mitogen-activated protein kinase 15 (MAPK15, Homo sapiens, UniProt Q8TD08): 100%
High affinity nerve growth factor receptor (NTRK1, Homo sapiens, UniProt P04629): 97%
